Assay results from different studies.
Each line is one published result; not all experiments were run side by side.
SIK2: Serine/threonine-protein kinase SIK2 (SIK2, Homo sapiens, UniProt Q9H0K1)
Sequence of UniProt Q9H0K1 (whole entry, looked up): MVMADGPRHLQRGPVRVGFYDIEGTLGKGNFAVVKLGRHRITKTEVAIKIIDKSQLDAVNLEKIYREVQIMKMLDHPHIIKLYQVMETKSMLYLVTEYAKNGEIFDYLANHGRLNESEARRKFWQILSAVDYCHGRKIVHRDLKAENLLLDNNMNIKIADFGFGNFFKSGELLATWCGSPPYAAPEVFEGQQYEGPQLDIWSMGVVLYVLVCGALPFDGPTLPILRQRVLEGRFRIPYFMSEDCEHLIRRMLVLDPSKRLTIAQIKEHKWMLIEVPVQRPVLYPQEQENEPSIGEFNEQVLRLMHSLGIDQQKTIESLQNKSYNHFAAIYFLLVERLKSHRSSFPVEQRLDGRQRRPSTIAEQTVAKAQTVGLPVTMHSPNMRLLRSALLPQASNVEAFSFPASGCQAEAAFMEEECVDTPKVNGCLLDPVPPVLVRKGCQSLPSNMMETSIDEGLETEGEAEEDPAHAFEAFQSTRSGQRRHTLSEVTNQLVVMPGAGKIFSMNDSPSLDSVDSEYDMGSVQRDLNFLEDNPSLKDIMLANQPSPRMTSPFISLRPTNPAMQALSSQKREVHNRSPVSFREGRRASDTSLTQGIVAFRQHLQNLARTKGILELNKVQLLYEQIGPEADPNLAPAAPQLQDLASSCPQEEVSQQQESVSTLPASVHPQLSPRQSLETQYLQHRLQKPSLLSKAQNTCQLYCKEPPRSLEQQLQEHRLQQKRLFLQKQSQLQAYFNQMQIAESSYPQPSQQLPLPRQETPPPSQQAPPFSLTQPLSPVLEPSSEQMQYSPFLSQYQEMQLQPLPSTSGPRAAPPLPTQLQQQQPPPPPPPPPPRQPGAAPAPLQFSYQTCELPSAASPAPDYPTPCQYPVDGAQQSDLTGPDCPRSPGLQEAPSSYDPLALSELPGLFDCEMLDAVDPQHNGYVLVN
Sequence of UniProt Q9HCP0 (whole entry, looked up): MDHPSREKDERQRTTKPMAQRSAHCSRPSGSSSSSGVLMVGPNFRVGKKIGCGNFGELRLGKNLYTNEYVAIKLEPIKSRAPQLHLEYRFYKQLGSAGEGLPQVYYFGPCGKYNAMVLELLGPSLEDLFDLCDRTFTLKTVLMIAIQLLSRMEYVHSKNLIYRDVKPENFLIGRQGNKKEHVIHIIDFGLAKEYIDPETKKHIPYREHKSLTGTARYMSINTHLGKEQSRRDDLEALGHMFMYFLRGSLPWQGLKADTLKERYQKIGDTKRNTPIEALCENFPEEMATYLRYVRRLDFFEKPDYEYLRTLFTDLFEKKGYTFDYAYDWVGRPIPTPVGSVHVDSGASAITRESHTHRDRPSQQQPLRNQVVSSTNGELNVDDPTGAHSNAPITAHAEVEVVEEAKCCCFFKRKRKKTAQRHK
Sequence of UniProt Q7L7X3 (whole entry, looked up): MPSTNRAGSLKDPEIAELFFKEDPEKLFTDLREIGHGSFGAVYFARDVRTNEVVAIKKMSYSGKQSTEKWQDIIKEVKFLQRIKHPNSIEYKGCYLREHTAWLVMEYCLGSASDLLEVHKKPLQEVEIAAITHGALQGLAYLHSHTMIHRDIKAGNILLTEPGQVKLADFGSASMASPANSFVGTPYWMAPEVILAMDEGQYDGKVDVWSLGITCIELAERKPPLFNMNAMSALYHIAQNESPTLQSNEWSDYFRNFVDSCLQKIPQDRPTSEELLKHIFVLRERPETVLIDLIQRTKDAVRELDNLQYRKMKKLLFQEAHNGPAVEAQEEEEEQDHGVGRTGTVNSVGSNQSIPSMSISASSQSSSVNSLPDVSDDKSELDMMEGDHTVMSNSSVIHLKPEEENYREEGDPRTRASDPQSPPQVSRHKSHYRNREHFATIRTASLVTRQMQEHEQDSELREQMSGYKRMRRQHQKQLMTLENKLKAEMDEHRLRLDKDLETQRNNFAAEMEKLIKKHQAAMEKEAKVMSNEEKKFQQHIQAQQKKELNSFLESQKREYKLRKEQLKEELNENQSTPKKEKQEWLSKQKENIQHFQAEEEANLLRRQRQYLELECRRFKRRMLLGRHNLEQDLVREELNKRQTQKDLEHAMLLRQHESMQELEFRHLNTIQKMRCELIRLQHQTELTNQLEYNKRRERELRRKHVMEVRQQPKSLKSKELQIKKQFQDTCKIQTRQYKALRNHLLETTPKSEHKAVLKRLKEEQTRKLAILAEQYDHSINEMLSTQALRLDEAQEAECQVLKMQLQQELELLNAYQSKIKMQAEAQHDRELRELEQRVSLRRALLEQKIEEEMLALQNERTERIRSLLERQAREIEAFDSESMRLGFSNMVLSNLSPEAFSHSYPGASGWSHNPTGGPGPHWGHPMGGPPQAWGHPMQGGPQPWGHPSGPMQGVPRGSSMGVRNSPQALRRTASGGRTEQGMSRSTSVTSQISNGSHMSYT

SMILES | tested on | test | setting | quantity | result
Cc1cc([C@@H](C)Nc2ccccc2C(=O)O)c2nc(N3CCC(F)(F)CC3)c(C#N)c(=O)n2c1 | Serine/threonine-protein kinase pim-3 (PIM3, Homo sapiens, UniProt Q86V86) | binding, competition with immobilised ligand | 10 µM | remaining binding | 100%
Cc1cc(NS(=O)(=O)c2ccc(N=NN(O)c3ccccc3)cc2)no1 | – | ABTS scavenging | 300 µg/mL | inhibition | 98.7%
COc1cc(-c2cncc3c2CN(C)Cc2cc(N4CCNCC4)ccc2-3)cc(OC)c1OC | SIK2 | enzyme activity, inhibitor | 1 µM | remaining activity | 79%
OCc1ccc(-c2nn(Cc3ccccc3)c3ccc(F)cc23)o1 | RBE | cell growth or viability, ATP luminescence | 46 µM, 72 h | inhibition | 72%
CCC(=CCc1c(O)cc2c(c1O)C(=O)CC(c1ccc(O)cc1)O2)CC (stereo in doubt) | HeLa | cell growth or viability, MTT | 25 µM, 48 h | inhibition | 71.8%
Cc1cc(=O)oc2ccc(-c3cc(-c4cccs4)nc(N)n3)c(O)c12 | KB | cell growth or viability, MTT | 2 µg/mL, 72 h | inhibition | 0%
C=CC(=O)N1CCC(COCC(=O)N2CCN(c3nc(-c4cnc(N)nc4C(F)F)nc(N4CCOC[C@@H]4C)n3)CC2)CC1 | SIK2 | binding, competition with immobilised ligand | 1 µM | remaining binding | 91%
Cc1cc(Nc2ncc(Cl)c(Nc3ccccc3S(=O)(=O)C(C)C)n2)c(OC(C)C)cc1C1CCNCC1 | NCI-H3122 | cell growth or viability, MTT | 0.016 µg/mL, 72 h | inhibition | 23.3%
CCN(Cc1ccccc1OC)c1ccc(CO)c(Cl)c1 | RBE | cell growth or viability, ATP luminescence | 46 µM, 72 h | inhibition | 66%
C[C@@H]1CC[C@@H]([C@@](O)(CNCc2ccccc2)COCc2ccc(F)cc2)[C@H](OCc2ccc(F)cc2)C1 | HeLa | cell growth or viability, MTT | 30 µM, 72 h | inhibition | 96.4%
OCc1ccc(-c2nn(Cc3cccnc3)c3ccccc23)o1 | RBE | cell growth or viability, ATP luminescence | 46 µM, 72 h | inhibition | 75%
CCC(=CCc1c(O)cc2c(c1O)C(=O)C[C@H](c1ccccc1O)O2)CC | HeLa | cell growth or viability, MTT | 1.875 µM, 48 h | inhibition | -1.14%
Cc1cc(=O)oc2ccc(-c3cc(-c4ccccc4)nc(N)n3)c(O)c12 | KB | cell growth or viability, MTT | 2 µg/mL, 72 h | inhibition | 0%
CNc1ncc2c(/C=C/C(=O)N3CCC(OC)CC3)nn(Cc3cccc(C(F)(F)F)c3)c2n1 | Casein kinase I isoform gamma-1 (CSNK1G1, Homo sapiens, UniProt Q9HCP0) | enzyme activity, inhibitor, radiometric | 1 µM | remaining activity | 103%
C[C@@H]1CC[C@@H]([C@](O)(CNCc2ccccc2)COCc2ccccc2)[C@H](OCc2ccccc2)C1 | HeLa | cell growth or viability, MTT | 10 µM, 72 h | inhibition | 99.1%
OCc1ccc(-c2nn(-c3ccccc3)c3ccccc23)o1 | RBE | cell growth or viability, ATP luminescence | 46 µM, 72 h | inhibition | 78%
COc1ccccc1CNC[C@@](C)(O)[C@@H]1CC[C@@H](C)C[C@H]1OCc1ccccc1 | A2780 | cell growth or viability, MTT | 30 µM, 72 h | inhibition | 99.9%
CCCCC(=O)Nc1ccc(-c2ccc3ncn(CCC)c(=O)c3c2)cn1 | Serine/threonine-protein kinase TAO1 (TAOK1, Homo sapiens, UniProt Q7L7X3) | binding, competition with immobilised ligand | 0.5 µM | remaining binding | 100%
C=C(COCc1ccccc1)[C@@H]1CC[C@@H](C)C[C@H]1OCc1ccccc1 | HeLa | cell growth or viability, MTT | 30 µM, 72 h | inhibition | 44.5%
CC(=O)Nc1ccc(Oc2nnc(-c3ccc(Cl)cc3)c3ccccc23)cc1 | MCF7 | cell growth or viability, MTT | 0.156 µM, 24 h | viability | 27.3%
CCN(Cc1c(F)cccc1C(F)(F)F)c1ccc(CO)c(Cl)c1 | RBE | cell growth or viability, ATP luminescence | 46 µM, 72 h | inhibition | 57%
COc1ccc(CNC[C@](O)(COCc2ccc(OC)cc2)[C@@H]2CC[C@@H](C)C[C@H]2OCc2ccc(OC)cc2)cc1 | HeLa | cell growth or viability, MTT | 30 µM, 72 h | inhibition | 97.6%

A few entries again:
SMILES | tested on | test | setting | quantity | result
C[C@@H]1CC[C@@H]([C@](O)(CNCc2ccccc2)COCc2ccccc2)[C@H](OCc2ccccc2)C1 | HeLa | cell growth or viability, MTT | 10 µM, 72 h | inhibition | 99.1%
